{"data": "Measured values from different studies", "target": "3-phosphoinositide-dependent protein kinase 1 (PDPK1, Homo sapiens, UniProt O15530)", "One construct used (O15530 1-556)": "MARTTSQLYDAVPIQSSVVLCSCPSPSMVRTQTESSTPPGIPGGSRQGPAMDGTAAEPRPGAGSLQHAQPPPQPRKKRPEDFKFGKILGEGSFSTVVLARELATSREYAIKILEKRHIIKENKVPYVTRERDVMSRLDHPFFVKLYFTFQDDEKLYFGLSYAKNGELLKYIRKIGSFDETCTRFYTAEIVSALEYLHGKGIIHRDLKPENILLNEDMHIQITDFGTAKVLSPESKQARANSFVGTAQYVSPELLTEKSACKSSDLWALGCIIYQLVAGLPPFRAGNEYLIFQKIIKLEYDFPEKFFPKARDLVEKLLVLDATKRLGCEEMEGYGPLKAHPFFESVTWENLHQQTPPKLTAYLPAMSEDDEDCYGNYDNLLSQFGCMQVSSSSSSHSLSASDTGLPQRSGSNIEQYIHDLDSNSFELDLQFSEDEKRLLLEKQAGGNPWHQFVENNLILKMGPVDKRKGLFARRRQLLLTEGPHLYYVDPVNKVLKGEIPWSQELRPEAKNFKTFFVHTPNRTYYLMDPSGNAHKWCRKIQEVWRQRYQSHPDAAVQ"}
{"Structure (SMILES)": "c1cnc2ccc(Nc3nc(NC4CC4)c4nc[nH]c4n3)cc2c1", "assay": "kinase activity, inhibitor, SelectScreen kinase profiling", "setting": "1 µM", "scale": "reference: control", "endpoint": "remaining activity", "result": "77%"}
{"Structure (SMILES)": "CC[C@@H]1[C@H](F)C(=O)N[C@@H]1COc1nccc2cc(C(N)=O)c(OC)cc12", "assay": "ATP-site probe binding, ActivX profiling, item: PDK1", "test system": "THP-1 cell lysate", "setting": "0.01 mM, Lys1 site", "endpoint": "inhibition", "result": "1.3%"}
{"Structure (SMILES)": "O=C1NC(=O)/C(=C/c2ccc(-c3ccc(F)cc3O)o2)S1", "assay": "enzyme activity", "setting": "10 µM", "endpoint": "remaining activity", "result": "97%"}
{"Structure (SMILES)": "COCCNc1nc2ccc(C#CC3(O)CCCCC3)cc2n1-c1ccnc(N)n1", "assay": "enzyme activity, inhibitor, Z'-LYTE", "setting": "1 µM", "scale": "reference: no-inhibitor control", "endpoint": "remaining kinase activity", "result": "13.7%"}
{"Structure (SMILES)": "COc1cc(-c2cncc3c2CN(C)Cc2cc(N4CCNCC4)ccc2-3)cc(OC)c1OC", "assay": "kinase activity", "setting": "1 µM, human enzyme, together with: ATP 10 µM", "scale": "reference: DMSO control", "endpoint": "remaining activity", "result": "97%"}
{"Structure (SMILES)": "COc1cc(F)ccc1-c1ncnc(Nc2cccc(C[S@](C)(=N)=O)c2)n1", "assay": "kinase activity", "setting": "10 µM, together with: 10 µM ATP", "endpoint": "remaining activity", "result": "106%"}
{"Structure (SMILES)": "CNc1ncc2c(/C=C/C(=O)N3CCC(OC)CC3)nn(Cc3cccc(C(F)(F)F)c3)c2n1", "assay": "kinase activity, inhibitor", "setting": "1 µM", "scale": "reference: untreated control", "endpoint": "remaining activity", "result": "97%"}
{"Structure (SMILES)": "Cc1cc(Nc2cc(N3CCN(C)CC3)nc(Sc3ccc(NC(=O)C4CC4)cc3)n2)[nH]n1", "assay": "kinase activity, KinaseProfiler", "setting": "0.03 µM, species human", "scale": "reference: control", "endpoint": "remaining activity", "result": "98%"}
{"note": "A few entries again:"}
{"Structure (SMILES)": "COCCNc1nc2ccc(C#CC3(O)CCCCC3)cc2n1-c1ccnc(N)n1", "assay": "enzyme activity, inhibitor, Z'-LYTE", "setting": "1 µM", "scale": "reference: no-inhibitor control", "endpoint": "remaining kinase activity", "result": "13.7%"}
